Literature values as cited in several papers.
Lines come from different studies, so protocols differ. Several values in a cell are separate wells, animals, samples, runs or records. ≈ marks a conversion by molar mass, not a printed value.
PTGS2: Prostaglandin G/H synthase 2 (PTGS2, Homo sapiens, UniProt P35354)
CDK2: Cyclin-dependent kinase 2 (CDK2, Homo sapiens, UniProt P24941)
KDR: Vascular endothelial growth factor receptor 2 (KDR, Homo sapiens, UniProt P35968)
Grin1: Glutamate receptor ionotropic, NMDA 1 (Grin1, Rattus norvegicus, UniProt P35439)
PSMB1/PSMB8/PSMB3: PSMB1/PSMB8/PSMB3 (Homo sapiens, UniProt P20618+P28062+P49720)
PARP1: Poly [ADP-ribose] polymerase 1 (PARP1, Homo sapiens, UniProt P09874)

For `CO[C@H]1/C=C/O[C@@]2(C)Oc3c(C)c(O)c4c(O)c(c(/C=N/N5CCN(C)CC5)c(O)c4c3C2=O)NC(=O)/C(C)=C\C=C\[C@H](C)[C@H](O)[C@@H](C)[C@@H](O)[C@@H](C)[C@H](OC(C)=O)[C@@H]1C`, the IC50 was 30 to 33 µM (SLC22A8 (Homo sapiens, UniProt Q8TCC7); inhibitor).
`COc1cc(C=CC(=O)O)cc(OC)c1O` has an IC50 of 18.3 µM (PTGS2; inhibitor).
For `CN1C/C=C/CCOc2cccc(c2)-c2ccnc(n2)Nc2ccc(OCCN3CCCC3)c(c2)C1`, the IC50 was 0.25 µM (CDK2).
For `Cc1c2cc(Br)ccc2nc(-c2ccc(Cl)cc2)[n+]1[O-]`, the IC50 was 7.14 µM (PTGS2; inhibitor).
For `CC[C@H](C)[C@H](NC(=O)[C@H](CC(C)C)NC(=O)[C@H](CCCNC(=N)N)NC(=O)c1csc(-c2ccsc2)n1)C(=O)N[C@@H](Cc1ccccc1)C(=O)O`, the IC50 was 56.2 µM (CDK2).
For `C=CC(=O)Nc1cc(Nc2ncc(C(=O)OC(C)C)c(-c3cn(C)c4ccccc34)n2)c(OC)cc1N(C)CCN(C)C`, the IC50 was < 0.002 µM (human BLK; kinase activity, inhibitor).
For `CCCCCCC/C=C/C(=O)CCc1ccc(O)c(OC)c1`, the IC50 was 17.5 µM (PTGS2; inhibitor).
`Cc1cc(Nc2nccc(-n3ccnc3-c3ccccc3)n2)cc(C)n1` gave an IC50 of 0.135 µM (KDR; inhibitor).
For `O=C(O)/C(=C/c1c(C(=O)O)[nH]c2cc(Cl)cc(Cl)c12)c1ccccc1`, the IC50 was 0.022 µM (Grin1; inhibitor; historical reference value).
With `CCOCC(=O)N1CCC[C@H](C(=O)NCc2nc(-c3ccc(C#N)cc3)cs2)C1` the IC50 was > 30 µM (PSMB1/PSMB8/PSMB3; enzyme activity, inhibitor).
The IC50 of `N[C@@H]1C[C@@]1(F)c1ccccc1` is reported as 3.6 µM (tyramine oxidase (Arthrobacter sp.); enzyme activity, inhibitor; pH 7.2, literature data, together with: benzylamine 0.6 mM substrate).
For `COc1ccc(CNc2c(CO)cnc3c(C4CC4)cc(C#N)cc23)cc1Cl`, the IC50 was > 10 µM (PDE11A (Homo sapiens, UniProt Q9HCR9)).
The IC50 of `NC(=O)N1CCC(CC(=O)N2CCC([C@H]3c4ncc(Br)cc4CCc4cc(Cl)cc(Br)c43)CC2)CC1` is reported as 0.0019 µM (farnesyltransferase; enzyme activity; together with: H-ras substrate).
`CC1(C)S[C@@H]2[C@H](NC(=O)[C@H](N)c3ccccc3)C(=O)N2[C@H]1C(=O)O` has an MIC of > 16 µg/mL (Enterobacter cloacae; clinical isolate RKI-No_506/15).
For `COc1ccnc2c1c(-c1ccnc(N)n1)c1ccnc(N)n12`, the IC50 was 0.08 µM (CDK2).
`C[C@H](NC(=O)[C@H](CC(=O)NCC(C)(C)C)NC(=O)c1ccc(C(=O)NO)cc1)C(=O)NCc1ccccc1` has an IC50 of 0.27 µM (HDAC6 (Homo sapiens, UniProt Q9UBN7); inhibitor).
For `CCOc1cc(C(=O)N[C@@H](CCCNC(=N)N)C(=O)NC(CC(=O)N(C)[C@@H](Cc2ccccc2)C(N)=O)CC(C)C)ccc1CN1CCNCC1` (stereo partly drawn), the IC50 was 22.6 µM (CDK2).
`N[C@H]1C[C@@]1(F)c1ccc(F)cc1` gave an IC50 of 75 µM (tyramine oxidase (Arthrobacter sp.); enzyme activity, inhibitor; pH 7.2, literature data, together with: benzylamine 0.6 mM substrate).
For `CCOc1nc2cccc(C(=O)O)c2n1Cc1ccc(-c2ccccc2-c2nnn[nH]2)cc1`, the IC50 was 0.00026 µM (angiotensin II receptor).
For `COc1cc2nccc(Oc3ccc(NC(=O)Nc4ccc(C)cc4)cc3)c2cc1OC`, the IC50 was 0.0005 µM (KDR; inhibitor).
`COCC(=O)N1CCC[C@H](C(=O)NCc2nc(-c3ccc(C#N)cc3)cs2)C1` gave an IC50 of > 30 µM (PSMB1/PSMB8/PSMB3; enzyme activity, inhibitor).
`CN(C)c1ccc(/C=C/c2cn(C(=O)/C=C/c3ccccc3)cc2C(=O)c2ccccc2)cc1` gave an IC50 of 0.55 µM (PTGS2; inhibitor).
`Nc1ncnc2c1ncn2C1CCCC1` has an IC50 of ~10 µM (human phosphatidylinositol 4-kinase).
For `Nc1scc2c1c(Nc1ccc(S(N)(=O)=O)cc1)nc1nc(NCCO)nc(N)c12`, the IC50 was 8.1 µM (CDK2).
The IC50 of `CCCCCCCCCCCCOC(=O)c1cc(O)c(O)c(O)c1` is reported as 18.6 µM (PTGS2; inhibitor).
With `Nc1cc(C(F)(F)F)c(-c2nc(N3CCOCC3)nc(N3CCOCC3)n2)cn1` the remaining activity was 96% (SLK (Homo sapiens, UniProt Q9H2G2); enzyme activity; 10 µM; relative to: untreated).
For `CN1C/C=C/CCOc2cccc(c2)-c2ccnc(n2)Nc2ccc(N3CCOCC3)c(c2)C1`, the IC50 was 0.074 µM (CDK2).
`NS(=O)(=O)c1ccc(-n2nc(-c3ccc(C(F)(F)F)cc3O)nc2-c2ccccc2O)cc1` has an IC50 of 0.54 µM (PTGS2; inhibitor).
The IC50 of `CCn1cc(C(=O)O)c(=O)c2ccc(C)nc21` is reported as > 50 µM and > 30 µM (DNA gyrase (gyrA/gyrB, Escherichia coli, UniProt P0AES4+P0AES6); enzyme activity, inhibitor).
`CNC(C)C1CCC(N)C(OC2C(N)CC(N)C(OC3OCC(C)(O)C(NC)C3O)C2O)O1` (stereo not drawn) has an MIC of 2 µg/mL (≈ 4.19 µM) (Enterobacter cloacae; clinical isolate RKI-No_506/15).
`O=C(O)c1cc(O)c(O)c(O)c1` has an IC50 of 64.3 µM (PTGS2; inhibitor).
With `COC1CCN(C(=O)c2cc(Cc3n[nH]c(=O)c4ccccc34)ccc2F)CC1` the IC50 was 0.005 µM (PARP1; enzyme activity, inhibitor).
`COc1ccc2cc1CN(C)C/C=C/CCOc1cccc(c1)-c1ccnc(n1)N2` has an IC50 of 0.077 µM (CDK2).
`O=C(O)/C(=C/c1c(C(=O)O)[nH]c2cc(Cl)cc(Cl)c12)c1ccccc1` gave an IC50 of 0.022 µM (Grin1).
With `O=C1N=C(C(=O)c2c[nH]c3ccccc23)N/C1=C\c1c[nH]c2cc(O)ccc12` the IC50 was 7.4 µg/mL (HER2 (c-erbB-2) kinase; inhibitor).
With `CC1=NN(c2ccc(C)c(C)c2)C(=O)/C1=N\Nc1cccc(-c2cccc(C(=O)O)c2)c1O` the IC50 was 2.7 µM (SLCO1B1 (Homo sapiens, UniProt Q9Y6L6); inhibitor).
`COC(=O)c1nc(CCl)n(-c2ccc(F)cc2)n1` gave an IC50 of 0.0179 µM (PTGS2; inhibitor).
`N=C(NOCC(O)CN1CCCCC1)c1cccnc1` (stereo not drawn) has an IC50 of 120 µM (PARP1; enzyme activity, inhibitor).
`CCN1CCN(Cc2ccc(C(=O)N[C@@H](CCCNC(=N)N)C(=O)NC(CC(=O)NC(Cc3ccsc3)C(N)=O)CC(C)C)cc2)[C@@H](C)C1` (stereo partly drawn) has an IC50 of 6.78 µM (CDK2).
